Published values from different studies.
Each numbered part is a random draw from the data of one study; scales do not carry over between parts. Several values in a cell are separate wells, animals, samples, runs or records.
Chain of UniProt P11802 (whole entry, looked up): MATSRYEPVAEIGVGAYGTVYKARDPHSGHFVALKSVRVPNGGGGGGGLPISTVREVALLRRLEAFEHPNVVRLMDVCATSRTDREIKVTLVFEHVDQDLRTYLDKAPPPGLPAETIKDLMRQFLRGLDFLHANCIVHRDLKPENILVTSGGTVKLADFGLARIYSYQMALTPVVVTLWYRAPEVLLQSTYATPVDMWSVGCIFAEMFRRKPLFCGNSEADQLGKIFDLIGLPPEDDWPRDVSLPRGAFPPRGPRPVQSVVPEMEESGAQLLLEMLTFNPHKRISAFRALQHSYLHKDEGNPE
Chain of UniProt Q96SB4 (whole entry, looked up): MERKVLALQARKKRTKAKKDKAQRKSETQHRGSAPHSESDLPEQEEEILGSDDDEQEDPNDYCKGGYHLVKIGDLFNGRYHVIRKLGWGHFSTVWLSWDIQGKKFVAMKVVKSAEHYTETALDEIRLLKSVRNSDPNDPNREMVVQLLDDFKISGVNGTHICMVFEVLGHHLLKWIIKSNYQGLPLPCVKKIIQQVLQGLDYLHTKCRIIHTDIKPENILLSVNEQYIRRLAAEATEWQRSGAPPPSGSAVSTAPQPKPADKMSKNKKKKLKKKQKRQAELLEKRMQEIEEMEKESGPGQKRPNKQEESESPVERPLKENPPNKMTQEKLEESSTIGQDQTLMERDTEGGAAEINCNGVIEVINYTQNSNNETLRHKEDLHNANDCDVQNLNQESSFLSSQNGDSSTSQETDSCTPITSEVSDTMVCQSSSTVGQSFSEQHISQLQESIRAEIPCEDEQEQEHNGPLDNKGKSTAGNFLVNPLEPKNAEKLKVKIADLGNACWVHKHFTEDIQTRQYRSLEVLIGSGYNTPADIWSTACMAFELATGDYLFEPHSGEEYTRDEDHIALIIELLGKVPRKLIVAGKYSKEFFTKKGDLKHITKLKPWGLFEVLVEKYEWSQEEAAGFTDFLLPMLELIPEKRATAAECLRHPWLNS
Chain of UniProt Q6XUX3 (whole entry, looked up): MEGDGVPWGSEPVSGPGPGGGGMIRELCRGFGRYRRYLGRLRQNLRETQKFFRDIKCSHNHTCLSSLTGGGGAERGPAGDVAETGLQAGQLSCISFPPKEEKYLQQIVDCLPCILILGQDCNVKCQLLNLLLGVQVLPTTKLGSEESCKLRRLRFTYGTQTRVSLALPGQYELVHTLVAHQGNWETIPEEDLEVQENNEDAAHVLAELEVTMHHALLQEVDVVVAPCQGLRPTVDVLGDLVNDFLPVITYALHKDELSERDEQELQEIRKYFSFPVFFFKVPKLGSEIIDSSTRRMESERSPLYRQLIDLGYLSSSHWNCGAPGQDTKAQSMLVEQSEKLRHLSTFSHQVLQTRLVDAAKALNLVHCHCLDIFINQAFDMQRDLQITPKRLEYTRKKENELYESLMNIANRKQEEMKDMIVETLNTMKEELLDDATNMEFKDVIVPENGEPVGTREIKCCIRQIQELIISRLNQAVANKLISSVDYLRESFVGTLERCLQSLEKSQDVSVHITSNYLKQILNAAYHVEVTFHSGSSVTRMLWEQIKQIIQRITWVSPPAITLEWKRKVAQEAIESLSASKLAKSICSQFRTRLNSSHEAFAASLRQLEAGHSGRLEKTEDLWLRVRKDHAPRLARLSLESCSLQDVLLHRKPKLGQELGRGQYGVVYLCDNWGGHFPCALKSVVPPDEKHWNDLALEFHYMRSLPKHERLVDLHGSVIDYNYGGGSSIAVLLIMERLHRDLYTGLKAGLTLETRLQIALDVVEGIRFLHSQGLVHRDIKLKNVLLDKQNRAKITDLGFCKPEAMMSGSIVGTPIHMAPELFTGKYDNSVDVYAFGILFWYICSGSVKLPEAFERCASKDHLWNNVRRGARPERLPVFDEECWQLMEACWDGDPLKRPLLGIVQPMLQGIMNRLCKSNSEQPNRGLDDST
Chain of UniProt O96017 (whole entry, looked up): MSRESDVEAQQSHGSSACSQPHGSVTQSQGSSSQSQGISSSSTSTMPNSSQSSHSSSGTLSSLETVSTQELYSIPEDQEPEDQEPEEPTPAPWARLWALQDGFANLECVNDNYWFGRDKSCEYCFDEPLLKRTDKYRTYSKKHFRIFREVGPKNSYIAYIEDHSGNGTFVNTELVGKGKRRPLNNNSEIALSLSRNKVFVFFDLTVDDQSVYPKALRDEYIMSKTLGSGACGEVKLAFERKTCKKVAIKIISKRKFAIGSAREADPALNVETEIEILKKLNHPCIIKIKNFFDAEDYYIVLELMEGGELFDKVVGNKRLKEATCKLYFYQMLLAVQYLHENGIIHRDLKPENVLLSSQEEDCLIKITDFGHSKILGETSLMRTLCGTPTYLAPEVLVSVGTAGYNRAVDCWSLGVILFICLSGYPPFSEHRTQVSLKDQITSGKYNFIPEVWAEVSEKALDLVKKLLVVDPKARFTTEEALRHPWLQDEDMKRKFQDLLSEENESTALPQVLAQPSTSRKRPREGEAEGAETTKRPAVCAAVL
Chain of UniProt P27361 (whole entry, looked up): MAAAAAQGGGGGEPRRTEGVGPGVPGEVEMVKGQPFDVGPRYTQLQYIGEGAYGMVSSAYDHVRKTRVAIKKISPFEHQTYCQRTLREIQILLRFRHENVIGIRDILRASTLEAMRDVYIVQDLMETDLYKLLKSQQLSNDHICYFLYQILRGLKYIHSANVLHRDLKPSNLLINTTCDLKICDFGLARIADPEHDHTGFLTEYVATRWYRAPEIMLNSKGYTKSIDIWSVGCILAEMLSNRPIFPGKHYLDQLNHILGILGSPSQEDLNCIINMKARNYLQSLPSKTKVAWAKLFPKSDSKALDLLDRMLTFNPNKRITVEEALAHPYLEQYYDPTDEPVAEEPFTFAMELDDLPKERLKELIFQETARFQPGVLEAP

Series 1
Compound: Cc1ncsc1-c1ccc(C(CO)NC(=O)C2CC(O)CN2C(=O)C(C(C)C)n2cc(-c3ccc(COc4c(-c5c(C)c(F)cc6[nH]ncc56)c(C5CC5)cc5c(N6CC7CC6CN7)nc(OC6CCOCC6)nc45)cc3)nn2)cc1 (stereo not shown)
Observed: cell growth or viability
Method: ATP luminescence
Time: 6 days
Quantity: viability
SW-403; 1 nM: 81% and 94.7% and 100% and 112%
PSN1; 10 nM: 90% and 83.8% and 85.3% and 97%
GP5d; 0.3 µM: 38.1% and 32.7% and 25.5% and 29.8%
ASPC1; 300 pM: 90.6% and 87% and 77.7% and 82.1%
A-375; 10 nM: 83.1% and 85.9% and 90.8% and 88.6%
HCT-116; 3 nM: 99.5% and 92.9% and 89.4% and 106%
COLO 320; 1 µM: 77.7% and 104% and 88.5% and 77.5%
PaTu 8902; 1 nM: 121% and 100% and 108% and 102%
GP2d; 3 µM: 27.4% and 26.2% and 21.2% and 22.7%
T24; 0.1 µM: 95.5% and 95.2% and 98.6% and 95.8%

Series 2
SMILES: O=C(O)C1Oc2cc(F)ccc2N(Cc2ccccc2)C1=O (stereo not shown)
Organism: Arabidopsis thaliana
Strain: Col-0
Sample: seedlings
Quantity: inhibition
root length; 3.125 µg/mL; baseline: water control: 5.21%
root length; 6.25 µg/mL: 10.8%
hypocotyl length; 3.125 µg/mL: 3.44%
root length; 100 µg/mL; baseline: water control: 37.8%
root length; 100 µg/mL: 37.8%
hypocotyl length; 25 µg/mL: 14.9%
root length; 12.5 µg/mL; baseline: water control: 12.4%
hypocotyl length; 6.25 µg/mL: 4.68%
root length; 12.5 µg/mL: 12.4%

Series 3
SMILES: C[C@@H]1CN(c2ccc(-c3cc(C(=O)NCCOCCOCCOCCOCCNC(=O)/C=C/c4[nH]cc(C(=O)N[C@@H](CC(N)=O)c5ccc(F)c(Cl)c5)c4-c4ccc(Cl)cc4F)ccc3F)cc2NC(=O)c2c[nH]c(=O)cc2C(F)(F)F)C[C@H](C)N1C
Observed: thermal unfolding
Method: differential scanning fluorimetry
Concentration: 5.5 µM
Reading: higher = more unfolded
Quantity: SYPRO Orange fluorescence
DCAF1: DDB1- and CUL4-associated factor 1 (DCAF1, Homo sapiens, UniProt Q9Y4B6)
Chain of UniProt Q9Y4B6 (whole entry, looked up): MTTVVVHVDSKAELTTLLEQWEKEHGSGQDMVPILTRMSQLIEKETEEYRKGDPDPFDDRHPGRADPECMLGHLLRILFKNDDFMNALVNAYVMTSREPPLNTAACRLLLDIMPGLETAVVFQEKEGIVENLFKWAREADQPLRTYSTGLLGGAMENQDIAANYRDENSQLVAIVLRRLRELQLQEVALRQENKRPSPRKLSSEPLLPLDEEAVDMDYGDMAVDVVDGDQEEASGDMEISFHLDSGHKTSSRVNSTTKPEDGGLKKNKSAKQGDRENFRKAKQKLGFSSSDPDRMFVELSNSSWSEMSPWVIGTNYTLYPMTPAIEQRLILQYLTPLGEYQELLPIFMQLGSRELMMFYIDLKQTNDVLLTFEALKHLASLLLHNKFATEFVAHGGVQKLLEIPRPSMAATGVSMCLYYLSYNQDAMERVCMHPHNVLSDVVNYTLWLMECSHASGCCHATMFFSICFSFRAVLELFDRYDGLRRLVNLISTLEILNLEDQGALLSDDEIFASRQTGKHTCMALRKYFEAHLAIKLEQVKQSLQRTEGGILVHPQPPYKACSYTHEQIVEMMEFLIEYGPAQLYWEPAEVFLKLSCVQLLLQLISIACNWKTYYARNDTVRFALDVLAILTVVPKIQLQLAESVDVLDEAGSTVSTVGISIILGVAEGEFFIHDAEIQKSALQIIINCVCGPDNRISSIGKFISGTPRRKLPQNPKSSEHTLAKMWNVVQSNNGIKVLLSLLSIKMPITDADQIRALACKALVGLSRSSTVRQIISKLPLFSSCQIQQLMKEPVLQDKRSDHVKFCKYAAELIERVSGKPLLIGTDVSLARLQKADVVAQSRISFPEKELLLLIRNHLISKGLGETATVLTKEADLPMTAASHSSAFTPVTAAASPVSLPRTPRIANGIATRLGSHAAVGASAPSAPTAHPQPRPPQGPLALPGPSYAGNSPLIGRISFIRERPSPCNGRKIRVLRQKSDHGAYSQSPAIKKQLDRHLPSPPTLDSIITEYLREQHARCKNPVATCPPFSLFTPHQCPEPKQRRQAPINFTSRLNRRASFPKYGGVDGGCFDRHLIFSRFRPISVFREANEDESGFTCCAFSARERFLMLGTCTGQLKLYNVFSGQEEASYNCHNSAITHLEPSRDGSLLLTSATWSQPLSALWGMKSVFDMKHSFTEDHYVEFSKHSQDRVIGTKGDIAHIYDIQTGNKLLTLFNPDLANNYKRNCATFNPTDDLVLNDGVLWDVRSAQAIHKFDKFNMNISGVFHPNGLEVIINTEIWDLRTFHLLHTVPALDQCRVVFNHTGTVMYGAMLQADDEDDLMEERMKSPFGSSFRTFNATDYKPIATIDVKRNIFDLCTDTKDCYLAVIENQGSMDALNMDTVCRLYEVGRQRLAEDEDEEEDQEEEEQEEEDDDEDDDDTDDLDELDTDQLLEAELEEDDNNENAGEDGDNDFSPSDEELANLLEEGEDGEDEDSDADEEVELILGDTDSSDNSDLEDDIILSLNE
WDR5: WD repeat-containing protein 5 (WDR5, Homo sapiens, UniProt P61964)
DCAF1; 68.41 °C: 57600 a.u.
WDR5; 53.01 °C: 16800 a.u.
DCAF1; 28.2 °C: 9050 a.u.
DCAF1; 32.4 °C: 9740 a.u.
WDR5; 67.81 °C: 14300 a.u.
DCAF1; 59.01 °C: 35900 a.u.
WDR5; 27.4 °C: 12900 a.u.
WDR5; 40.2 °C: 13800 a.u.
DCAF1; 33.8 °C: 9870 a.u.
WDR5; 80.61 °C: 42200 a.u.
WDR5; 43.8 °C: 15100 a.u.

Series 4
Cell line: Gaucher fibroblasts L444P/L444P
Method: 4-MUG hydrolysis, cell lysate
Concentration: 1 µM
Baseline: DMSO
Quantity: GCase activity
COc1ccc(Nc2nc(NCCN3CCOCC3)nc(N3CCOCC3)n2)cc1: 101% and 99.6% and 99.1% and 98.2% and 96.3% and 98.5%
Fc1ccc(Nc2nc(NCCN3CCOCC3)nc(N3CCOCC3)n2)cc1: 100% and 104% and 96.9% and 91.2% and 94.9% and 98.3%
Cc1ccc(Nc2nc(NCCN3CCOCC3)nc(N3CCOCC3)n2)cc1: 108% and 109% and 111% and 115% and 97.1%
CCOc1ccc2nc(Sc3nc(N4CCOCC4)nc(N4CCOCC4)n3)sc2c1: 110% and 114% and 107% and 109%
c1ccc(Nc2nc(NCCN3CCOCC3)nc(N3CCOCC3)n2)cc1: 99.9% and 102% and 98% and 95.9% and 100%
Ic1ccc(Nc2nc(NCCN3CCCCC3)nc(N3CCOCC3)n2)cc1: 114% and 113% and 109% and 118% and 102% and 110%
Ic1ccc(Nc2nc(NCCN3CCOCC3)nc(NC3CCCCC3)n2)cc1: 92.7% and 89.9% and 90.5% and 90.3%
Ic1ccc(Nc2nc(NCCCN3CCOCC3)nc(N3CCOCC3)n2)cc1: 164% and 150% and 143% and 171% and 148%

Series 5
Compound: CCN1/C(=C/C=C2\CCCC(/C=C/C3=[N+](CC)c4ccccc4C3(C)C)=C2NCCCCCCCCN2CCC(Nc3nc4ccccc4n3Cc3ccc(F)cc3)CC2)C(C)(C)c2ccccc21
Cell line: U-87 MG
Concentration: concentration not given
Baseline: DMSO
Quantity: log2 fold change
item: RAB9B mRNA: -1.03
item: CCDC34 mRNA: -1.5
item: NBPF12 mRNA: 0.913
item: ITPKC mRNA: 0.985
item: CD274 mRNA: 1.84
item: ETNK1 mRNA: 0.814
item: SLC33A1 mRNA: 1.26
item: TESK2 mRNA: 1.17
item: CMBL mRNA: -1.02
item: CEP85 mRNA: -1.08
item: FBXO43 mRNA: -1.74
item: RHOBTB2 mRNA: -0.865
item: TCP11L2 mRNA: 1.16
item: PACC1 mRNA: 1.02
item: WDR25 mRNA: 1.03
item: MYBL1 mRNA: -1.91

Series 6
Cell line: MDA-MB-231
Observed: cell viability
Method: CellCounting-Lite
Concentration: 666.7 nM
Temperature: 37 °C
Reading: higher = more viable cells
Quantity: luminescence signal
CCn1cnc2c(NCc3nc4cc(Cl)c(Cl)cc4[nH]3)nc(N3CCN(Cc4ccncc4)CC3)nc21: 17800 a.u. and 27300 a.u. and 15300 a.u.
CCn1cnc2c(NCc3nc4cc(Cl)c(Cl)cc4[nH]3)nc(N3CCn4ncnc4C3)nc21: 18400 a.u. and 21300 a.u. and 18900 a.u.
CCn1cnc2c(NCc3nc4cc(Cl)c(Cl)cc4[nH]3)nc(N3CCC(NC(C)=O)CC3)nc21: 37300 a.u. and 52800 a.u. and 44000 a.u.
CC(=O)N1CCN(c2nc(NCc3nc4cc(Cl)c(Cl)cc4[nH]3)c3ncn(-c4cnn(C)c4)c3n2)CC1: 45800 a.u. and 44300 a.u. and 34700 a.u.
CCn1cnc2c(NCc3nc4cc(F)c(F)cc4[nH]3)nc(N3CCn4ncnc4C3)nc21: 35300 a.u. and 38300 a.u. and 35900 a.u.
CCn1cnc2c(NCc3nc4cc(Cl)c(Cl)cc4[nH]3)nc(N3CCN(C(=O)c4cccnc4)CC3)nc21: 12400 a.u. and 14400 a.u. and 17200 a.u.
Cn1cc(-n2cnc3c(NCc4nc5cc(Cl)c(Cl)cc5[nH]4)nc(N4CCNCC4)nc32)cn1: 7900 a.u. and 10700 a.u. and 10500 a.u.
CCn1cnc2c(NCc3nc4cc(Cl)c(Cl)cc4[nH]3)nc(N3CCN(c4ccccn4)CC3)nc21: 209000 a.u. and 296000 a.u. and 265000 a.u.
CCn1cnc2c(NCc3nc4cc(Cl)c(Cl)cc4[nH]3)nc(N3CCN(C(=O)c4ccncc4)CC3)nc21: 13800 a.u. and 11500 a.u. and 14400 a.u.
CC(=O)N1CCN(c2nc(NCc3nc4cc(Cl)c(Cl)cc4[nH]3)c3ncn(C(C)C)c3n2)CC1: 452000 a.u. and 487000 a.u. and 483000 a.u.
CCn1cnc2c(NCc3nc4cc(Cl)c(Cl)cc4[nH]3)nc(N3CCN(S(C)(=O)=O)CC3)nc21: 12200 a.u. and 14100 a.u. and 13400 a.u.
CCn1cnc2c(NCc3nc4cc(Cl)c(Cl)cc4[nH]3)nc(N3CCN(C(C)=O)CC3)nc21: 13600 a.u. and 16300 a.u. and 11800 a.u.
CC(=O)N1CCN(c2nc(NCc3nc4cc(Cl)c(Cl)cc4[nH]3)c3ncn(C)c3n2)CC1: 24300 a.u. and 37100 a.u. and 18800 a.u.
CCn1cnc2c(NCc3nc4cc(Cl)c(Cl)cc4[nH]3)nc(N3CCN(C(=O)CNC(C)=O)CC3)nc21: 9820 a.u. and 9370 a.u. and 10600 a.u.
CCn1cnc2c(NCc3nc4cc(Cl)c(Cl)cc4[nH]3)nc(N3CCN(C(=O)[C@H](C)NC(C)=O)CC3)nc21: 10900 a.u. and 14600 a.u. and 13400 a.u.
CCCCOc1nc(NCc2nc3cc(Cl)c(Cl)cc3[nH]2)c2ncn(CC)c2n1: 16100 a.u. and 17200 a.u. and 22900 a.u.
CCn1cnc2c(NCc3nc4ccc(F)c(F)c4[nH]3)nc(N3CCn4ncnc4C3)nc21: 13600 a.u. and 18000 a.u.
CCn1cnc2c(NCc3nc4cc(Cl)c(Cl)cc4[nH]3)nc(N3CCN(C(=O)c4ccccc4)CC3)nc21: 15800 a.u. and 18000 a.u. and 15100 a.u.

Series 7
Structure (SMILES): NC/C(=C\F)COc1cccc(Cn2c(=S)[nH]c(=O)c3[nH]cnc32)c1
Time: 60 min
Quantity: remaining compound
human hepatocytes: 85.5% and 74.1% and 69.7% and 72.3%
rat liver microsomes: 95.6% and 98.4% and 73.7% and 92.1%
dog hepatocytes: 78.3% and 71.9% and 78.1% and 77.8%
dog liver microsomes: 86.7% and 84.8% and 71.4% and 76.6%

Series 8
SMILES: CCC1(c2cccc(-c3cn(C)nc3C)c2)C2=C(Nc3n[nH]cc31)C(F)C(C)(C)CC2=O (single isomer, unassigned)
Concentration: 1 µM
Quantity: remaining binding
PIK3C2B (Homo sapiens, UniProt O00750); kinase binding, KINOMEscan; baseline: DMSO control: 100%
EGFR (Homo sapiens, UniProt P00533); kinase binding, KINOMEscan; baseline: DMSO control: 100%
Cyclin-dependent kinase 4, with cyclin D1 (CDK4, Homo sapiens, UniProt P11802); kinase binding, KINOMEscan; baseline: DMSO control: 64%
STK11 (Homo sapiens, UniProt Q15831); binding, competition with immobilised ligand: 93%
SRPK1 (Homo sapiens, UniProt Q96SB4); binding, competition with immobilised ligand: 86%
CAMK2D (Homo sapiens, UniProt Q13557); kinase binding, KINOMEscan; baseline: DMSO control: 100%
MAPK3 (Homo sapiens, UniProt P27361); binding, competition with immobilised ligand: 93%
ALK (Homo sapiens, UniProt Q9UM73, C1156Y); binding, competition with immobilised ligand: 89%
NUAK2 (Homo sapiens, UniProt Q9H093); kinase binding, KINOMEscan; baseline: DMSO control: 100%
CDKL1 (Homo sapiens, UniProt Q00532); binding, competition with immobilised ligand: 89%
BMPR2 (Homo sapiens, UniProt Q13873); binding, competition with immobilised ligand: 84%
CILK1 (Homo sapiens, UniProt Q9UPZ9); kinase binding, KINOMEscan; baseline: DMSO control: 87%
FLT3 (Homo sapiens, UniProt P36888, K663Q); kinase binding, KINOMEscan; baseline: DMSO control: 94%
MAP3K13 (Homo sapiens, UniProt O43283); binding, competition with immobilised ligand: 100%
RIOK3 (Homo sapiens, UniProt O14730); binding, competition with immobilised ligand: 95%
CHEK2 (Homo sapiens, UniProt O96017); kinase binding, KINOMEscan; baseline: DMSO control: 100%
SGK3 (Homo sapiens, UniProt Q96BR1); kinase binding, KINOMEscan; baseline: DMSO control: 100%
Cyclin-dependent kinase 4, with cyclin D3 (CDK4, Homo sapiens, UniProt P11802); kinase binding, KINOMEscan; baseline: DMSO control: 100%
DSTYK (Homo sapiens, UniProt Q6XUX3); binding, competition with immobilised ligand: 86%
NEK11 (Homo sapiens, UniProt Q8NG66); binding, competition with immobilised ligand: 92%

Mixed results
PKMYT1: Membrane-associated tyrosine- and threonine-specific cdc2-inhibitory kinase (PKMYT1, Homo sapiens, UniProt Q99640)
Chain of UniProt Q99640 (whole entry, looked up): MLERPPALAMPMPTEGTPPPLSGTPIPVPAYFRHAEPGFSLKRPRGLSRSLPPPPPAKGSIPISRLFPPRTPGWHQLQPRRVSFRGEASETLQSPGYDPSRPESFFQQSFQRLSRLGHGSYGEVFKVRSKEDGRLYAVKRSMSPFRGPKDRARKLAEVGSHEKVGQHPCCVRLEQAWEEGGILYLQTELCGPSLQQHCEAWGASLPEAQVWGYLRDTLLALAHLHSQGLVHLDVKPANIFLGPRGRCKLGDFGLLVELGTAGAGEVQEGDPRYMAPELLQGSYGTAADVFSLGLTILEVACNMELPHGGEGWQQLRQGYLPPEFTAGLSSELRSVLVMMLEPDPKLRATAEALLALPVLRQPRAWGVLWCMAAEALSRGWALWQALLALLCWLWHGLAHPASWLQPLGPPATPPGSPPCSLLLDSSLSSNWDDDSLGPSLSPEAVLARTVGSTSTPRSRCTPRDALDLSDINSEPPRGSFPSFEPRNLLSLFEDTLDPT
Cc1ccc(O)c(C)c1-c1cnc2[nH]c(-c3cnc(N4CCC5(CC4)CC(N4CCN(c6ccc(N[C@H]7CCC(=O)NC7=O)cc6F)CC4)CO5)nc3)cc2c1C#N (single isomer, unassigned)
plasma concentration (Sprague-Dawley rat; intravenous, dose not given, 24 h): not detected

Cc1ccc(O)c(C)c1-c1cnc2[nH]c(-c3cnc(N4CCC5(CC4)CC(N4CCN(c6cc7c(cc6F)c(N6CCC(=O)NC6=O)nn7C)CC4)CO5)nc3)cc2c1C#N (racemic)
protein level (PKMYT1; degrader, automated immunoblot (Jess); 1 nM; baseline: GAPDH): 65.1%

Cc1ccc(O)c(C)c1-c1cnc2[nH]c(-c3cnc(N4CCC(CCN5CCN(c6cc7c(cc6F)c(N6CCC(=O)NC6=O)nn7C)CC5)CC4)nc3)cc2c1C#N
protein level (PKMYT1; degrader, automated immunoblot (Jess); 0.1 nM; baseline: GAPDH): 70.6%

Cc1ccc(O)c(C)c1-c1cnc2[nH]c(-c3cnc(N4CCC(CN5CCN(c6ccc7c(c6)C(=O)N(C6CCC(=O)NC6=O)C7=O)CC5)CC4)nc3)cc2c1C#N (stereo not shown)
remaining protein level (PKMYT1; immunoblotting; HCC1569; 1 µM, 8 h): 20.1%

A few entries again (series 1):
GP2d; 3 µM: 27.4% and 26.2% and 21.2% and 22.7%
SW-403; 1 nM: 81% and 94.7% and 100% and 112%
ASPC1; 300 pM: 90.6% and 87% and 77.7% and 82.1%
A-375; 10 nM: 83.1% and 85.9% and 90.8% and 88.6%
PaTu 8902; 1 nM: 121% and 100% and 108% and 102%
COLO 320; 1 µM: 77.7% and 104% and 88.5% and 77.5%
T24; 0.1 µM: 95.5% and 95.2% and 98.6% and 95.8%
PSN1; 10 nM: 90% and 83.8% and 85.3% and 97%
HCT-116; 3 nM: 99.5% and 92.9% and 89.4% and 106%
GP5d; 0.3 µM: 38.1% and 32.7% and 25.5% and 29.8%
